Measured values from different studies.
Numbered parts are unrelated; each lists some results of a single study. Positions count from the first letter of the parent shown.

Set 1 — target: human cyclin A2; read-out: peptide binding; technique: competitive growth sequencing; molecule type: peptide; organism: Saccharomyces cerevisiae; strain: cyclin A2-Cln2 fusion strain; concentration: concentration not given; setting: peptide tiling library; baseline: unfused Cln2 strain; direction: direction not given
| Molecule | binding score |
| --- | --- |
| SNFFDVIKQLFSDEKN | 0.471 |
| QDYERRLLRQIVIQNE | 0.466 |
| IPMIAKNLMCELDE | 0.32 |
| RKLDLEGIGR | 2.64 |
| RRVLCFDS | 0.581 |
| SVKQLGPPFEHASNND | 1.82 |
| GQLVIPLDELTLDTSF | 0.42 |
| IFNKPECGRVQRAIFQ | 0.676 |
| AIRKMREDRWAVIAKM | 1.46 |
| DTERAHSTLDEDLERW | 0.0547 |
| KPITLDTTDFQESFVT | -0.0297 |
| GTPKRCLDLSNLSSGE | 0.285 |
| PAKRRLELGE | 2.21 |
| TARRIFQEPTEPKTKA | 1.11 |
| ASVLSKPIFCFVKD | 0.086 |
| LRRQLSFSED | 0.839 |
| DSDSDSEGGAAGGEAD | 1.08 |
| RKLHFEDEVT | 2.61 |
| VLLKRLQDVVSERANH | 0.112 |
| MNQELLSVGSKRRRTG | 0.285 |
| GRLPAKRKLDLEGIGR | 2.15 |

Set 2 — target: NFE2, bZIP domain (human); technique: DHFR protein complementation; medium: yeast; baseline: wild-type JUN-FOS pair; direction: higher = stronger binding
Setting: single substitutions, most at no-binding floor
Starting sequence: JUN, bZIP domain (human); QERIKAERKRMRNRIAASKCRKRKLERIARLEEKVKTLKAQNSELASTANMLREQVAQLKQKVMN; partner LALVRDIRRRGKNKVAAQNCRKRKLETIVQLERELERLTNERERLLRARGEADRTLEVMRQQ
| Variant | binding fitness [natural log] |
| --- | --- |
| Q58T | -1.4 |
| A49R | -1.4 |
| A57W | -1.43 |
| K36H | -0.964 |
| V56C | -1.43 |
| L52D | -1.49 |
| K39R | -1.41 |
| A49Y | -1.43 |
| S47M | -1.36 |
| T48G | -1.45 |
| E32F | -1.56 |
| L52A | -1.41 |
| A40N | -1.32 |

Set 3 — technique: protein-binding microarray; molecule type: double-stranded DNA, one strand shown; medium: in vitro; concentration: 0.8 µM; setting: whole 60-bp probe, no competitor; direction: higher = stronger binding; shared flanks, not repeated: … GTCTTGATTCGCTTGACGCTGCTG
Target: Centromere-binding protein 1, full length, N-terminal tag (CBF1, Saccharomyces cerevisiae, UniProt P17106, residues 1-351)
Sequence of UniProt P17106 (whole entry, looked up): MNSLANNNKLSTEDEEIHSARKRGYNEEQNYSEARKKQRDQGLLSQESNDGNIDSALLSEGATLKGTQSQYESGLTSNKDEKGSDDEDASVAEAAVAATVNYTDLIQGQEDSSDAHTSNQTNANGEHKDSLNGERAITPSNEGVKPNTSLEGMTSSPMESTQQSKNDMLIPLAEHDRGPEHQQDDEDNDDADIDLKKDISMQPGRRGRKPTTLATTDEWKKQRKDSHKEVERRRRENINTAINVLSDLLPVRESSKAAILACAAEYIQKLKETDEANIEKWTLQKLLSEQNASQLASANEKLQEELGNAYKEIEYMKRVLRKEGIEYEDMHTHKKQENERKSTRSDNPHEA
| Strand | fluorescence intensity [a.u.] |
| --- | --- |
| GAACCTTTGTAAACGATCGTGACCCGCGGACCATAG | 668 |
| GAATCCTTTTCATCTTATGTGACTGTCATTCATTAG | 522 |
| GAAGGTTTATAGGTTCACATGATATGAGTATAATAG | 1210 |
| GAAACCATCACTTATCACGTTGTGGTGACAACGTAG | 979 |
| GAAGCCTATCCAGATTGGGTGACGCGTAAAGGATAG | 521 |
| CTATACTGGGTAAAATTCACCACGTTATCTTCTTTC | 896 |
| CTACGACTCCCAACACACGTTTAATGTTGTACGTTC | 544 |
| CTATGTACTTCATCAAACACCACGCTGTCAGGCTTC | 569 |
| CTATGGATTGCCAGAAACGTGACGTGAAATACCTTC | 3810 |
| CTACAGCATCCGTGTTTCGTGACATCATTGAAGTTC | 588 |
| GAACGTTTGAAGTGACGCGTCACTAACCATGACTAG | 502 |
| GAAACGCATGTTTCTCATGTGTTACCCGTCCTTTAG | 697 |
| GAAAATTTAAGAAGTTGCGTGGCAATAGGTGGCTAG | 538 |
| GAAAAATTTATACTCTACACCACCTTCGTTATTTAG | 493 |
| CTATTTTTCACCTTCCACGTGGATATTTTCACGTTC | 2840 |
| GAAAATTGCATGATTCAGCTGACTGCATATGTGTAG | 1190 |
| CTAGAACTCCGCCATCATGTGCTCAAGACTAGATTC | 1120 |
| GAAGCATACACTTTACACATGGCTAACCCAATCTAG | 555 |
| GAAAGGGAAAGCTCTGATGCACCATTAATCTGGTAG | 528 |

Set 4 — technique: DHFR PCA, deep sequencing; medium: yeast; added: (+)-ABA 710 µM; baseline: wild-type fitted maximum; direction: higher = stronger binding
Target: ABI1, truncated, D143A, DHFR fusion (Arabidopsis thaliana)
Setting: methotrexate growth selection, single substitutions
Starting sequence: PYL1, truncated, DHFR fusion (Arabidopsis thaliana); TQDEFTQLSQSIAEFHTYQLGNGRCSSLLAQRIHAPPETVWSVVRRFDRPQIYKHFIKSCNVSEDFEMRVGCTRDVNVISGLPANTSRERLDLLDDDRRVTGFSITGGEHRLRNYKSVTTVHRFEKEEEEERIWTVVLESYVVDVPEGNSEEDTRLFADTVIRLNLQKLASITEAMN
| Variant | relative binding score [%] |
| --- | --- |
| P83H | 56.1 |
| N85L | 102 |
| K116D | 12.8 |
| T1R | 95.9 |
| V142W | 83.8 |
| E131R | 108 |
| S9P | 92.3 |
| S9M | 93.5 |
| D97T | 123 |
| A170G | 97 |
| D153G | 53.6 |
| T154N | 5.05 |
| A84G | 98.9 |
| S42T | 98.9 |
| C72L | 94.4 |
| L156E | 96.3 |
| Q19T | 107 |

Set 5 — technique: protein-binding microarray; molecule type: double-stranded DNA, one strand shown; medium: in vitro; concentration: 250 nM; setting: 60-bp whole probe; added: salmon DNA 0.4 mg/ml; baseline: random background probes; direction: higher = stronger binding; shared flanks, not repeated: GCCTAGCAC … GTCTTGATTCGCTTGACGCTGCTG
Target: Interferon regulatory factor 5, full length, phosphomimetic (IRF5, Homo sapiens, UniProt Q13568-2, residues 1-514, K96S/S451D/S453D/S456D/S462D)
| Strand | log fluorescence [z-score] |
| --- | --- |
| TTAGAACTGAGACTGGAATAGTGCTAG | -0.0638 |
| GACCGACTGGGGACTGGGGACGTGCTA | -0.396 |
| GAAGAACTGGGGTTTCGAGACGTGCTA | 1.26 |
| TGAGGTATCCTTTTCCTTTAGTGCTAG | 0.222 |
| CTCTCTTTCCACTTGTCTTTGTGCTAG | 1.59 |
| TTAGAACTGGGGCCTGGATTAGTGCTA | -0.267 |
| TCAACTAGCGGGTCTTGCACTGTGCTA | 0.0122 |
| GACGAACCGGGGTATCGAGACGTGCTA | 0.273 |
| TGAGGTTTCCTTTCCCTTTAGTGCTAG | 1.72 |
| GACGGTTTCCCTTTCCTGACGTGCTAG | 1.24 |
| TTTGATCTCAGTTTCGATTAGTGCTAG | 9.61 |
| GACGATATCAGTATCGAGATGTGCTAG | 3.45 |
| GACGGACTGATTTTCCTGACGTGCTAG | -0.117 |
| TTAGGTTTCCGTTTCCTTTAGTGCTAG | 2.26 |
| GACGGTAGCGACACTGGGGACGTGCTA | -0.528 |
| GTCGATATCAGTTTCGAGACGTGCTAG | 7.83 |
| TCATGTGTGTGTATGTGACTGTGCTAG | 0.0871 |
| GACTGTTTCGGTTCCGGGACGTGCTAG | 9.62 |
| CCCTTACCGCATATCGGGGTGTGCTAG | -0.021 |
| ATAGAACTGAGACTGGATTAGTGCTAG | -0.00313 |
| TTAGATATCAGTTTCGATTGGTGCTAG | 10.2 |
| TTAGGTATTGACTATCGGTTAGTGCTA | 6.67 |
| CTAGGTATCGGTCTCGGTTAGTGCTAG | 6.09 |
| GCAAATATATCAGTGAATTTGTGCTAG | 0.74 |
| GACGATCTCAGTATCGAGAGGTGCTAG | 1.7 |

Some of these lines once more (set 1):
| Molecule | binding score |
| --- | --- |
| DTERAHSTLDEDLERW | 0.0547 |
| KPITLDTTDFQESFVT | -0.0297 |
| GTPKRCLDLSNLSSGE | 0.285 |
| PAKRRLELGE | 2.21 |
| TARRIFQEPTEPKTKA | 1.11 |
| ASVLSKPIFCFVKD | 0.086 |
| LRRQLSFSED | 0.839 |
| DSDSDSEGGAAGGEAD | 1.08 |
| RKLHFEDEVT | 2.61 |
